# Assay results pooled from the literature.
# Parts stem from different laboratories: compare values within a part only. Positions count from the first letter of the parent shown.

# Sample 1
# Target: CCND3, cyclin fold, Cln2 fusion (human)
# Technique: yeast growth competition, sequencing
# Medium: yeast
# Notes: weak parent motif
# Relative to: not given
# Direction: higher = stronger binding
# Starting sequence: PKMYT1 docking peptide (human); SFEPRNLLSLFED; partner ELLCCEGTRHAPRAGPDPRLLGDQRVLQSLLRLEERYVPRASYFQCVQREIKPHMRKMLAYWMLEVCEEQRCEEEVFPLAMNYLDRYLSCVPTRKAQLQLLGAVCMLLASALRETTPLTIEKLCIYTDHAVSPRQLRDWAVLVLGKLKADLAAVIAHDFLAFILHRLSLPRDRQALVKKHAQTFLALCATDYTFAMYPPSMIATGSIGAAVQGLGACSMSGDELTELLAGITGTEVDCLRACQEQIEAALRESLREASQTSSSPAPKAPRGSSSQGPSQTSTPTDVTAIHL
Substitution,normalised enrichment score
SFEPRNLLSLFHD [E12H],0.0907
YFEPRNLLSLFED [S1Y],-0.0529
SDEPRNLLSLFED [F2D],0.1
SFEPRNLLSIFED [L10I],0.166
SFEPRNPLSLFED [L7P],0.00188
SFEPMNLLSLFED [R5M],0.107
SFEPRALLSLFED [N6A],0.0682
SFEPRNLLSLHED [F11H],0.149

# Sample 2
# Target: UBE2A UBC core domain (UniProt P49459)
# Chain of UniProt P49459 (whole entry, looked up): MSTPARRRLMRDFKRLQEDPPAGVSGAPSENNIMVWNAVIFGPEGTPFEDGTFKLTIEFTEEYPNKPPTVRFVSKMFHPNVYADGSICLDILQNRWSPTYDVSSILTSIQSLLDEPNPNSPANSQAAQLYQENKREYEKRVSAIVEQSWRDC
# Technique: yeast two-hybrid
# Medium: yeast
# Notes: mostly zero background
# Relative to: not given
# Direction: higher = stronger interaction
# B1: TRIM24 RING domain (UniProt O15164); chain EAARLNLLDTCAVCHQNIQSRAPKLLPCLHSFCQRCLPAPQRYLMLPAPMLGSAETPPPVPAPGSPVSGSSPFATQVGVIRCPVCSQECAERHII
# B2: TRIM4 RING domain (UniProt Q9C037); chain EAEDIQEELTCPICLDYFQDPVSIECGHNFCRGCLHRNWAPGGGPFPCPECRHPSAPAALRP
# B3: DTX4 RING domain (UniProt Q9Y2E6); chain QKVRHPPDEDCTICMERLTAPSGYKGPQPTVKPDLVGKLSRCGHVYHIYCLVAMYNNGNKDGSLQCPTCKTIYGVKTGTQ
# B4: RNF38 RING domain (UniProt Q9H0F5); chain PNNHQSEQTLCVVCMCDFESRQLLRVLPCNHEFHAKCVDKWLKANRTCPICRADASEVHRDS
# B5: TRAF5 RING domain (UniProt O00463); chain FVERLEERYKCAFCHSVLHNPHQTGCGHRFCQHCILSLRELNTVPICPVDKEVIKSQEVFK
# B6: RNF111 RING domain (UniProt Q6ZNA4); chain EGTEEDTEEKCTICLSILEEGEDVRRLPCMHLFHQVCVDQWLITNKKCPICRVDIEAQLPSE
# B7: TRIM13 RING domain (UniProt O60858); chain MELLEEDLTCPICCSLFDDPRVLPCSHNFCKKCLEGILEGSVRNSLWRPAPFKCPTCRKETSATGINS
# B8: NEURL1 RING domain (UniProt O76050); chain VTPGLGQWSDECTICYEHAVDTVIYTCGHMCLCYACGLRLKKALHACCPICRRPIKDIIKT
# B9: TRIM43 RING domain (UniProt Q96BQ3); chain FSHAFQKELTCVICLNYLVDPVTICCGHSFCRPCLCLSWEEAQSPANCPACREPSPKMDFKT
# B10: TRIM40 RING domain (UniProt Q6P9F5); chain LQKDNQEEGVCPICQESLKEAVSTNCGHLFCRVCLTQHVEKASASGVFCCPLCRKPCSEEVLG
# B11: SH3RF2 RING domain (UniProt Q8TEC5); chain DDLTLLDLLECPVCFEKLDVTAKVLPCQHTFCKPCLQRVFKAHKELRCPECRTPVFSNIEAL
# B12: RNF208 RING domain (UniProt Q9H0X6); chain SSAAAGEPLECPTCGHSYNVTQRRPRVLSCLHSVCEQCLQILYESCPKYKFISCPTCRRETVLFTDYG
Sequence,lacZ reporter activity
B1 (TRIM24 RING domain),0
QVDKAVFHMQSVKCLKCQEQKRAVLPCQHAALCELCAEGSECPICQPGRAHTLQS (UNK RING domain (UniProt Q9C0B0)),0
B2 (TRIM4 RING domain),0
B3 (DTX4 RING domain),0
B4 (RNF38 RING domain),0
B5 (TRAF5 RING domain),0
B6 (RNF111 RING domain),0
B7 (TRIM13 RING domain),0
B8 (NEURL1 RING domain),0
DHGAVGQEMCCPICCSEYVKGEVATELPCHHYFHKPCVSIWLQKSGTCPVCRCMFPPPL (PJA1 RING domain (UniProt Q8NG27)),0
B9 (TRIM43 RING domain),0
B10 (TRIM40 RING domain),0
ASLPTSEEDLCPICYAHPISAVFQPCGHKSCKACINQHLMNNKDCFFCKTTIVSVEDWE (RNF123 RING domain (UniProt Q5XPI4)),0
VEPSEENSKDCVVCQNGTVNWVLLPCRHTCLCDGCVKYFQQCPMCRQFVQESFALC (CGRRF1 RING domain (UniProt Q99675)),0
B11 (SH3RF2 RING domain),0
B12 (RNF208 RING domain),0

# Sample 3
# Target: RNA binding protein fox-1 homolog 2, RRM domain, GST-SBP tag (RBFOX2, Homo sapiens, UniProt O43251-10, residues 100-194)
# Technique: RNA Bind-n-Seq
# Form: RNA
# Medium: in vitro
# Tested at: 365 nM
# Notes: natural RNA segment, single round, ends assumed
# Relative to: no-protein control
# Direction: higher = stronger binding
# Shared flanks, not repeated: GGGAGUUCUACAGUCCGACGAUC … UGGAAUUCUCGGGUGCCAA
# Target sequence (chain): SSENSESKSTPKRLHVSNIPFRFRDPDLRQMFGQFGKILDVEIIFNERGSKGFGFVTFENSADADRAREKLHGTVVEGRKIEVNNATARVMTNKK
Sequence,RBNS enrichment (R)
UUCAAGUGCUAAAAAAAAAAUUAAACCAAGCAGCUUAACCAUGGUUUUGAUUAUUCCUCUAAGAUGAGCUUCUGGGAACAGUAUCACCAAAUGUCCCAAACAUUUAAGCU,0.421
AAGCAUAUGAUAUUGGUUUUAAUAUAUUUACCAAAAGUACUAUUGCUUGGAUAUAAAAUCACUGAGCUGUUUCCGGUUCUCUCUAAGUUUGGGAAUCCUAUGUGUAUUUA,0.506
CUUGAAGUAUCUUUCGUGAGAGUAGUAUGGAAGUAAAACGUUCUCAUAUCAGGAGGAUGUCAUUUGUGAAGCAUGGGGACAUCAUGAACUAGUGAUGUGCGUGAGGCUUG,3.52
AAAGUGACUUCUUACAGCUAGUGCAUUGUGCUCUUUCCAAGUUCAGCAGCAGUUCUAUCAGUGGUGCCACUGAAACUGGGUAUAUUUAUGAUUUCUUUCAGCGUUAAAAA,0.381
AUGGGAACCGAGCUGAAGCAGAGGCUGAGUUAGGGGGCUAGAGGACAGUGCUCCUGGCCACCCAGCCUCUGCUGAGAACCAUUCCUGGGAUUAGAGCUGCCUUUCCCAGG,0.359
GAGGUUGAGGUGACUAAAAGGUUAGCCUCUCAUAACCCAGCCAUGGAAGUUUUGUUUACUAGGAGCCUGACUUCCCAGCUCACAAAGGGUGAAAUGAAAGCUGAAGUACA,0.379
CCCAGCAAAUUUGAGGCCUAUGGUAGUUGAGGUGCUCAACUAAUGUUUGUUGUAUGAACCAAGUGGUUUGAAGACUUGCUGCCAAAUUCUGCCUUUUGGGUCAGUAUAGG,2.2
CUUUCAGGGUAAUAAAGUGGGGAAAAGGAACGUCUUCUCAAUGCAAGAACAUAAGCUUUCUCGUAUAUACCUGUAUGCUACAGUUUUUCACAUGGAAUUCCGUUUUCUGA,0.319

# Sample 4
# Target: HLA class I histocompatibility antigen, A alpha chain, allele A*80:01 (Homo sapiens, UniProt P04439)
# Effect on: peptide-MHC binding
# Form: peptide
# Tested at: concentration not given
Sequence,binding
SQAFNTPAL,inactive
MPFDPSELV,inactive
RQRHYFDSA,inactive
KPKALSEAF,inactive
AINGFVLPK,inactive
ILNRKAIDF,inactive
VHYGQGWLY,active
TTRAVNMEV,inactive
YALTEYHAM,inactive

# Excerpt of the above (sample 1):
Substitution,normalised enrichment score
SFEPRNPLSLFED [L7P],0.00188
SFEPMNLLSLFED [R5M],0.107
SFEPRNLLSIFED [L10I],0.166
SFEPRNLLSLHED [F11H],0.149
